Assay results gathered from unrelated publications.
Each line is one published result; not all experiments were run side by side. Values joined by “and” are separate records of one study, mostly repeats; a detail may differ.

`COc1cccc(-c2n[nH]c(SCc3ccccn3)n2)c1OC` gave a plasma concentration of 1530 ng/mL (Sprague-Dawley rats, both sexes; oral dietary, 100 mg/kg/day, day 7, 0 h).
The plasma concentration of `C[C@@H]1CCO[C@H]2Cn3cc(C(=O)NCc4ccc(F)cc4F)c(=O)c(O)c3C(=O)N12` is reported as 765 ng/mL (population PK, post-hoc; children aged 0.25 to 5 years, 6 to <10 kg, plasma; oral, 15 mg dispersible tablet, 24 h, steady state, geometric mean).
`CCOCc1nc(O)c(-c2nnc(Cc3ccc(Cl)cn3)o2)c(O)c1-c1c(OC)cccc1OC` has a plasma concentration of 15300 nM (rat, anaesthetised, cannulated, plasma; intravenous infusion, 100 µg/kg/min, 15 min).
For `Cc1c(-c2ccc(N3CCc4cccc(C(=O)Nc5nc6ccccc6s5)c4C3)nc2C(=O)O)cnn1CC12CC3(C)CC(C)(C1)CC(OCCNCC[C@H](O)CO)(C3)C2`, the plasma concentration was under 2 ng/mL (anaesthetized male beagle dog; iv infusion, 0.01 mg/kg/min, 180 min).
With `Cc1c(C(=O)O)ccc2c3n(nc12)[C@@H]1[C@H](C3)N(CC2CC2)[C@@]2(C(=O)Nc3cc(Cl)ccc32)[C@H]1c1cccc(Cl)c1F` the plasma concentration was 769 nM and 531 nM and 473 nM and 465 nM and 306 nM (female BALB/c nude mice, plasma; oral, 1 mg/kg twice daily, 7 h, SJSA-1 tumour-bearing).
`C[C@H]1O[C@@H](O[C@H]2CC[C@@]3(C)[C@@H](CC[C@]4(C)[C@@H]3C=C[C@]35OC[C@@]6(CCC(C)(C)C[C@H]63)[C@@H](O)C[C@]54C)[C@]2(C)CO)[C@H](O)[C@@H](O[C@@H]2O[C@H](CO)[C@@H](O)[C@H](O)[C@H]2O)[C@H]1O` gave a plasma concentration of 1.01 ng/mL and 0.88 ng/mL (UHPLC-MS/MS; mouse, plasma; oral, 50 mg/kg, 6 h, pooled samples).
`Cn1cc([C@H]2C[C@H]3CSC(N)=N[C@@]3(c3ccc(F)cc3F)CO2)cn1` has a plasma concentration of 11 nM (male 129/SVE mouse, plasma; subcutaneous, 3 mg/kg, 6 h).
For `CCN1CCN(Cc2ccc(NC(=O)c3ccc(C)c(NC(=O)c4cncc(-c5cccs5)c4)c3)cc2C(F)(F)F)CC1`, the plasma concentration was 26 ng/mL and 48 ng/mL and 60 ng/mL (LC-MS/MS; C57BL/6 mouse, plasma; intraperitoneal, 15 mg/kg single dose, 8 h).

Excerpt of the above:
`C[C@H]1O[C@@H](O[C@H]2CC[C@@]3(C)[C@@H](CC[C@]4(C)[C@@H]3C=C[C@]35OC[C@@]6(CCC(C)(C)C[C@H]63)[C@@H](O)C[C@]54C)[C@]2(C)CO)[C@H](O)[C@@H](O[C@@H]2O[C@H](CO)[C@@H](O)[C@H](O)[C@H]2O)[C@H]1O` gave a plasma concentration of 1.01 ng/mL and 0.88 ng/mL (UHPLC-MS/MS; mouse, plasma; oral, 50 mg/kg, 6 h, pooled samples).
